Results pooled from the literature.
Every numbered part comes from another study and shows a few of its results, in no order.
Chain of UniProt Q7L7X3 (whole entry, looked up): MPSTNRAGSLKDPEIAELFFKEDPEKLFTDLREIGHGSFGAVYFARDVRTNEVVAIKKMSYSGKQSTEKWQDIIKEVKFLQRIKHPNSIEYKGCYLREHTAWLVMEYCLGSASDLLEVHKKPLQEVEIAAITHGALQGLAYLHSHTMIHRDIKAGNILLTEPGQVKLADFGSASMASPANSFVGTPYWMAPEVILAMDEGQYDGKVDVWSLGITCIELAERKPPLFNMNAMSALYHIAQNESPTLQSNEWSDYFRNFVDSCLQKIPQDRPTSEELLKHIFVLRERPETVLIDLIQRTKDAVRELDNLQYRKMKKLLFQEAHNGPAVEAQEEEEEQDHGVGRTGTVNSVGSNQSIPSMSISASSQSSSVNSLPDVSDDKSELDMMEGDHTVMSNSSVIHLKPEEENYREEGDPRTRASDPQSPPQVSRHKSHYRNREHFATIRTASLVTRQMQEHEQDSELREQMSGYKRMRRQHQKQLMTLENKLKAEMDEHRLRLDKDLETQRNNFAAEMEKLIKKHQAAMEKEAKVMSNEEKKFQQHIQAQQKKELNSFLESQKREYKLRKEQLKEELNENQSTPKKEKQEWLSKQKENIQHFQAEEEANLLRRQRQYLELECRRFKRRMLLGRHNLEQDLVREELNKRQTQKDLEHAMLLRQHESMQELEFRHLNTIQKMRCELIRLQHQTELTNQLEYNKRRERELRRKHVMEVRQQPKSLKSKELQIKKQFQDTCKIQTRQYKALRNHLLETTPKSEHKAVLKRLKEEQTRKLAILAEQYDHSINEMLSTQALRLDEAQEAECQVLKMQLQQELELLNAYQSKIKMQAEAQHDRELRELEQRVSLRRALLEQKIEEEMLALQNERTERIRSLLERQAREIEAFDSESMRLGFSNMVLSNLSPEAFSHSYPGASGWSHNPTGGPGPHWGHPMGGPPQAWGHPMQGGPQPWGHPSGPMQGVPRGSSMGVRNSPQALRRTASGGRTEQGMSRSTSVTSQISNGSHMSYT
Chain of UniProt O15530 (whole entry, looked up): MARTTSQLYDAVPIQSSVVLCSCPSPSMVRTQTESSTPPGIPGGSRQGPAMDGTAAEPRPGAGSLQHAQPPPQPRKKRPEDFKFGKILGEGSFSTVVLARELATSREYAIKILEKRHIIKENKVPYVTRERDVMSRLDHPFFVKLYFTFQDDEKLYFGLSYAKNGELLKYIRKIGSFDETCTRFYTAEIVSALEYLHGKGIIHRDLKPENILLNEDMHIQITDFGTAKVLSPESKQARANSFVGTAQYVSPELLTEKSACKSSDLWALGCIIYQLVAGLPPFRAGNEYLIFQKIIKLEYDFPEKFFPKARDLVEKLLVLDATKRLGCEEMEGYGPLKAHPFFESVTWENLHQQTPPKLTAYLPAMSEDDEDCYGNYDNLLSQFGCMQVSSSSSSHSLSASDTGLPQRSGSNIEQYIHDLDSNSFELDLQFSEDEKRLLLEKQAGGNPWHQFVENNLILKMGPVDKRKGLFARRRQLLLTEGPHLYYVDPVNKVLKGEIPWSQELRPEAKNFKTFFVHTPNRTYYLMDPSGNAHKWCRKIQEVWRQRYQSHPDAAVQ
Chain of UniProt P05979 (whole entry, looked up): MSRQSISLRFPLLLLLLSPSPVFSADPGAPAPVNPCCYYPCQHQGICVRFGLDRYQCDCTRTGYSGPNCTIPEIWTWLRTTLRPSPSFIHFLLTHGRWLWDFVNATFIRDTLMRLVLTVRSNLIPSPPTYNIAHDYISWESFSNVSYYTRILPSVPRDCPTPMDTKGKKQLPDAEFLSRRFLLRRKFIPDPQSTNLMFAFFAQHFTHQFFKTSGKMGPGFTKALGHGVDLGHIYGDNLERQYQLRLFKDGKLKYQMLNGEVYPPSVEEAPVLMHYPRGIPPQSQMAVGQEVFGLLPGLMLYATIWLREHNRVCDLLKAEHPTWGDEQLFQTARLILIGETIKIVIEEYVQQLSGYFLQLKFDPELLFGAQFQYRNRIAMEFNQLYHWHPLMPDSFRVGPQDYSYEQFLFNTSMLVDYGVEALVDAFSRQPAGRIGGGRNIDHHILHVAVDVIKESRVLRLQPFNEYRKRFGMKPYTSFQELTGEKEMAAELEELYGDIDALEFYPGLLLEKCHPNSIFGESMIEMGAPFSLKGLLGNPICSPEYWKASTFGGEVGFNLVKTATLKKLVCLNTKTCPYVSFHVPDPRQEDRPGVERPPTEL
Chain of UniProt P50750 (whole entry, looked up): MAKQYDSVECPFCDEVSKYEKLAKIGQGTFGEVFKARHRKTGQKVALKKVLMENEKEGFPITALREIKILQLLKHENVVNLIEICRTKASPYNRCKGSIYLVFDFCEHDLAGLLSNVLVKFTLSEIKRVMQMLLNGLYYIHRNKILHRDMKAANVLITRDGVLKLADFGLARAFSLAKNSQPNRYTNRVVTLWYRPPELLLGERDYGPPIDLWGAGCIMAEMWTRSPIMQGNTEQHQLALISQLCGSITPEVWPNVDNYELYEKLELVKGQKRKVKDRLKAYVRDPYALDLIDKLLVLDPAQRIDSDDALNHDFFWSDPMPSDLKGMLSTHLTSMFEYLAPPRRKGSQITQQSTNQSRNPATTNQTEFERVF

Series 1 — method: competition with immobilised ligand; concentration: 1 µM
Compound: Cn1cncc1[C@@](O)(COc1ccc(C#N)cc1-c1ccc(OC(F)(F)F)cc1)c1ccc(C#N)cc1
target	read-out	remaining binding
FLT3 (Homo sapiens, UniProt P36888, R834Q)	cell-free assay	100%
IKBKB (Homo sapiens, UniProt O14920)	cell-free assay	100%
TRPM6 (Homo sapiens, UniProt Q9BX84)	cell-free assay	100%
EPHA4 (Homo sapiens, UniProt P54764)	cell-free assay	12%
TAOK1 (Homo sapiens, UniProt Q7L7X3)	cell-free assay	100%
FGFR4 (Homo sapiens, UniProt P22455)	cell-free assay	100%
TEC (Homo sapiens, UniProt P42680)	binding	100%
CDK9 (Homo sapiens, UniProt P50750)	cell-free assay	100%

Series 2 — read-out: enzyme activity; mode: inhibitor; concentration: 77 µM; relative to: untreated
Target: DNA polymerase theta, ATPase domain (POLQ, Homo sapiens, UniProt O75417)
Chain of UniProt O75417 (whole entry, unmodified, looked up): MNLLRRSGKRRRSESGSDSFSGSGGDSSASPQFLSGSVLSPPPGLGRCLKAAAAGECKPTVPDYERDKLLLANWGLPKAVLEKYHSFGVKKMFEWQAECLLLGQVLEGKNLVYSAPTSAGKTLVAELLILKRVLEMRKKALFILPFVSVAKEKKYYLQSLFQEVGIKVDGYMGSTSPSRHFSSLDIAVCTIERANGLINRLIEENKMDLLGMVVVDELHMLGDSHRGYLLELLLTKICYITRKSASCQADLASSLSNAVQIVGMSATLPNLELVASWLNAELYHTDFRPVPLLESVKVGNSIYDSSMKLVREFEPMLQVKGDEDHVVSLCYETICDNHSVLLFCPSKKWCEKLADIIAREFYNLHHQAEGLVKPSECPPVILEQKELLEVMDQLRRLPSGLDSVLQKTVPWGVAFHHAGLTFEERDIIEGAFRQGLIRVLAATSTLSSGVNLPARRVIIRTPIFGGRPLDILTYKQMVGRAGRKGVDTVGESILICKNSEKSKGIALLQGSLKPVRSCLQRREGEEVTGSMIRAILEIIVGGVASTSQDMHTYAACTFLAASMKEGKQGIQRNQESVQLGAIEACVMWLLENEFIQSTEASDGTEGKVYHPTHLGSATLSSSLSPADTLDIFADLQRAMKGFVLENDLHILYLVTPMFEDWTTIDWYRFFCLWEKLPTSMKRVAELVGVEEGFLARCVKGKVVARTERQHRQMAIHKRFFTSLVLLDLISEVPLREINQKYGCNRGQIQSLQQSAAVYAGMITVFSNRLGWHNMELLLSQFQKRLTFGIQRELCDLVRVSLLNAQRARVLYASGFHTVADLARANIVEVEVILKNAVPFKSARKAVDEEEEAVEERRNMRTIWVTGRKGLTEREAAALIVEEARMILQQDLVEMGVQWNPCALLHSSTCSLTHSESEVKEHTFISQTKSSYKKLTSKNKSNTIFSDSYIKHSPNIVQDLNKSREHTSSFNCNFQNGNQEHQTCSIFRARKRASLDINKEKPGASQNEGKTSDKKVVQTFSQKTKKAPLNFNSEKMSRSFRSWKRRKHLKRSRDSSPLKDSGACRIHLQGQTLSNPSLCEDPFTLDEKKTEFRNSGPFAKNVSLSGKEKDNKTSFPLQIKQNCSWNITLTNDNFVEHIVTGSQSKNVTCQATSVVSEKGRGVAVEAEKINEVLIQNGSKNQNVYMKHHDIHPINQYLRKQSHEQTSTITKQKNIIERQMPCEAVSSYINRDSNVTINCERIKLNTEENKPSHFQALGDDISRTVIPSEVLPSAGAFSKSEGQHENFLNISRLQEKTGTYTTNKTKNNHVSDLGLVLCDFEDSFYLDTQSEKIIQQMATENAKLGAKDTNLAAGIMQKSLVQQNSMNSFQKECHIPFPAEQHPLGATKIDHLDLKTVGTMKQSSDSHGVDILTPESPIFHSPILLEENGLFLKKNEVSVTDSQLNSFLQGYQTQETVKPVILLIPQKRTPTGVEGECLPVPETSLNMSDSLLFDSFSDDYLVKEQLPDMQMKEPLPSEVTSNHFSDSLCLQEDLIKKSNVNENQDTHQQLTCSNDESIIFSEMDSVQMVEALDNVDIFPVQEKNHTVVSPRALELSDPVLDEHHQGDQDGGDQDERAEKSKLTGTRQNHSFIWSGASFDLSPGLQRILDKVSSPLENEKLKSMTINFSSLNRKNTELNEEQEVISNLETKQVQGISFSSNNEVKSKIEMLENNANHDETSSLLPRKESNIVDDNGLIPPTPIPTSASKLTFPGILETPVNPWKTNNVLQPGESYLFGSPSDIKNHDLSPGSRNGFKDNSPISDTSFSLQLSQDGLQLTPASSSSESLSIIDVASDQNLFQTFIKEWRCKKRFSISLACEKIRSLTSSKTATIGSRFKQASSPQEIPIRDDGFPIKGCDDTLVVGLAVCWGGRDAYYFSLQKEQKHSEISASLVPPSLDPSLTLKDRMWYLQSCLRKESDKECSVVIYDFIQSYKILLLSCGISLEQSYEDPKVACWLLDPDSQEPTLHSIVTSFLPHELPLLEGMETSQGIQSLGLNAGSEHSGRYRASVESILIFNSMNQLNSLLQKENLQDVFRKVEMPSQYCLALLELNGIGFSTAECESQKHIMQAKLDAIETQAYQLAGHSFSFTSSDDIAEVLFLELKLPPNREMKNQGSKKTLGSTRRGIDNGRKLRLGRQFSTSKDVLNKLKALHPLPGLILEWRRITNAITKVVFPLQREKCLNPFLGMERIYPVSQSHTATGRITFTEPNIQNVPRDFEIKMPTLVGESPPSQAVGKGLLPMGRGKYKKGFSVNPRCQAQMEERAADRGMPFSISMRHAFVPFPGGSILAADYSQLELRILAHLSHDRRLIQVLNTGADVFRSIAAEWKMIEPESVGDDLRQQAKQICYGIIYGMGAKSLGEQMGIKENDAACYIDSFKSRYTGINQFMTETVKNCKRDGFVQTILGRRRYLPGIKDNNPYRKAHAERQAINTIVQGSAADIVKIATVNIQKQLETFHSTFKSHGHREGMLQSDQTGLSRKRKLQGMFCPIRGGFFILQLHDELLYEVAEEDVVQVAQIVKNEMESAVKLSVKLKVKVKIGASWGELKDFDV
Compound	remaining activity
CC(=O)NCCc1c[nH]c2ccccc12	86.9%
CC(=O)NBr	97.6%
O=S(=O)(CC1CS1)c1ccc(Oc2ccccc2)cc1 (stereo not drawn)	92.8%

Series 3
Compound: CNC(=O)c1ccc(-c2cnn3ccc(C(=O)N(C)c4ccc(Cl)c(C(=O)OC)c4)cc23)cc1
target	read-out	mode	IC50
OPRM1 (Homo sapiens, UniProt P35372)	cell-free assay	–	> 30 µM
MAP3K2 (Homo sapiens, UniProt Q9Y2U5)	enzyme activity	inhibitor	> 30 µM
HTR1A (Homo sapiens, UniProt P08908)	cell-free assay	–	> 30 µM
PTGS1 (Ovis aries, UniProt P05979)	cell-free assay	–	> 30 µM
IGF1R (Homo sapiens, UniProt P08069)	enzyme activity	inhibitor	> 30 µM
PDPK1 (Homo sapiens, UniProt O15530)	enzyme activity	inhibitor	> 30 µM
KDR (Homo sapiens, UniProt P35968)	enzyme activity	inhibitor	> 30 µM
AKT1 (Homo sapiens, UniProt P31749)	enzyme activity	inhibitor	> 30 µM
EIF2AK4 (Homo sapiens, UniProt Q9P2K8)	enzyme activity	inhibitor	> 30 µM

Single results of other studies
Compound	target	read-out	mode	concentration	endpoint	value
O=C(O)C1CCN1 (stereo not drawn)	Calcium/calmodulin-dependent protein kinase type II subunit alpha (CAMK2A, Homo sapiens, UniProt Q9UQM7)	enzyme activity	inhibitor	10 µM	inhibition	13%

Repeated from above (series 3):
target	read-out	mode	IC50
MAP3K2 (Homo sapiens, UniProt Q9Y2U5)	enzyme activity	inhibitor	> 30 µM
HTR1A (Homo sapiens, UniProt P08908)	cell-free assay	–	> 30 µM
PTGS1 (Ovis aries, UniProt P05979)	cell-free assay	–	> 30 µM
